Experimental data pooled from the literature.
Each numbered part is a random draw from the data of one study; scales do not carry over between parts.
UniProt P54764, sequence (whole entry, looked up): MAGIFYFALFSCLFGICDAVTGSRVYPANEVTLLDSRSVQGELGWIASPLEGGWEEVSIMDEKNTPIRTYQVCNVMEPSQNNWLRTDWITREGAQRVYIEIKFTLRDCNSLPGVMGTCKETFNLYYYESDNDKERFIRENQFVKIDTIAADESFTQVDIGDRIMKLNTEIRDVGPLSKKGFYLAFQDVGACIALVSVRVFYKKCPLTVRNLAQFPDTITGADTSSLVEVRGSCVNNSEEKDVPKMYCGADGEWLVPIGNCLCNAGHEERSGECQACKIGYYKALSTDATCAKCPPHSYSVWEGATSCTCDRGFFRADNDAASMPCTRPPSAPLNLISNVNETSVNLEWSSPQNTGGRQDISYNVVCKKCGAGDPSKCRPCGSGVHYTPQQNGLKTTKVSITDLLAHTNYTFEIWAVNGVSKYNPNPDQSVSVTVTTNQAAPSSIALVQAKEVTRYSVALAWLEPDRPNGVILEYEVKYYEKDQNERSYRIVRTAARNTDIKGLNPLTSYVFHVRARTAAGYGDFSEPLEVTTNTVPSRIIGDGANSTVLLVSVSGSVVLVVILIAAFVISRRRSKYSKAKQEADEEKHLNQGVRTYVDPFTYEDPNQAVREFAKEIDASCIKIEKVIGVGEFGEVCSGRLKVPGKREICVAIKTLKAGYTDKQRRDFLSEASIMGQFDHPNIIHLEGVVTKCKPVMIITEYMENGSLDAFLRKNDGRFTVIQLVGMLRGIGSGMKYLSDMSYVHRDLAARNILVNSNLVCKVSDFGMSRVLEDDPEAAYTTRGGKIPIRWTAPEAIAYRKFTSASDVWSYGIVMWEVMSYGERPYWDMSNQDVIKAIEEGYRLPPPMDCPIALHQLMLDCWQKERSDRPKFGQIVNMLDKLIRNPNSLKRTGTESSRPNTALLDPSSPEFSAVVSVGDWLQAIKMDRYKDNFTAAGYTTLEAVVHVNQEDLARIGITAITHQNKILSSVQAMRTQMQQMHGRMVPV
UniProt O95819, sequence (whole entry, looked up): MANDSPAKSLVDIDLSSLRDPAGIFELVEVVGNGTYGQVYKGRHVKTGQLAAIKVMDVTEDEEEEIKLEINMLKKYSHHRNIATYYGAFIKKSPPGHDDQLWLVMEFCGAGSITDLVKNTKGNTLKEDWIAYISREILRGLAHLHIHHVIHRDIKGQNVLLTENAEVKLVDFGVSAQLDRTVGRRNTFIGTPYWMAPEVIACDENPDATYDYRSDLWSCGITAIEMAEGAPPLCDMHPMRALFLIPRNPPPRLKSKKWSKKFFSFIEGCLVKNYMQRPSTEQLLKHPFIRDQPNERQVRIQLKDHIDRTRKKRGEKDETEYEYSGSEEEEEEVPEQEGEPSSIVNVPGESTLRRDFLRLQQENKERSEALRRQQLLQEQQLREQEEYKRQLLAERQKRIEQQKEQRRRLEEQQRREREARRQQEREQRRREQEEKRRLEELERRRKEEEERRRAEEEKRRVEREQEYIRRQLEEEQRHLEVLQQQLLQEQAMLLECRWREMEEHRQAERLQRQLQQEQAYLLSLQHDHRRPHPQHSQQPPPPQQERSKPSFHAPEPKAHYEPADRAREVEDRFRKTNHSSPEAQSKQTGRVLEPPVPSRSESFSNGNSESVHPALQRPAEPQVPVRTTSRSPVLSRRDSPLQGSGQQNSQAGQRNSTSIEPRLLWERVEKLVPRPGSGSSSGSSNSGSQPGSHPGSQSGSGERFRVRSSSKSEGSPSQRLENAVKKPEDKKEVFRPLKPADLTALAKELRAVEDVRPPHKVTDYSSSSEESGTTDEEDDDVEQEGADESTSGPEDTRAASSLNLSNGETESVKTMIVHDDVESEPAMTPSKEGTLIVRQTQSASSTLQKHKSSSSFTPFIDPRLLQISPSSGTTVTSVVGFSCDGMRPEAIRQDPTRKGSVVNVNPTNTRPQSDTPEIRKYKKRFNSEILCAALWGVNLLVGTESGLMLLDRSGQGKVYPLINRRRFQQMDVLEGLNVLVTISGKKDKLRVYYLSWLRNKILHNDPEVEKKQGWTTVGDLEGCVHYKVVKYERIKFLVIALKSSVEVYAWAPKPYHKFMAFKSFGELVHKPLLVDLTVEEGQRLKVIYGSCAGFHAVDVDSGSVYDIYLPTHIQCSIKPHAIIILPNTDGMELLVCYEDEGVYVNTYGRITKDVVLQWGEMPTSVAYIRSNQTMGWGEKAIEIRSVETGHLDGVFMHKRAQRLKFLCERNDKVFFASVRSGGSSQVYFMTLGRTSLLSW
UniProt P53778, sequence (whole entry, looked up): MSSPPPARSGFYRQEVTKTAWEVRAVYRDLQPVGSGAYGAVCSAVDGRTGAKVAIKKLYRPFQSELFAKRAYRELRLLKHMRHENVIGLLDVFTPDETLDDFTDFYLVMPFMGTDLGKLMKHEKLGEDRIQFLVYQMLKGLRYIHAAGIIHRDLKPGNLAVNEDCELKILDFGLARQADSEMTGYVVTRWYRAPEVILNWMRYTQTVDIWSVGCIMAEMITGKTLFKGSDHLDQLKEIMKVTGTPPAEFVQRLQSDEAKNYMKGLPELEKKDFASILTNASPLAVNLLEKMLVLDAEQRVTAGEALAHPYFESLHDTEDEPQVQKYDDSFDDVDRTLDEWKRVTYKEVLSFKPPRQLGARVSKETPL
UniProt Q00534, sequence (whole entry, looked up): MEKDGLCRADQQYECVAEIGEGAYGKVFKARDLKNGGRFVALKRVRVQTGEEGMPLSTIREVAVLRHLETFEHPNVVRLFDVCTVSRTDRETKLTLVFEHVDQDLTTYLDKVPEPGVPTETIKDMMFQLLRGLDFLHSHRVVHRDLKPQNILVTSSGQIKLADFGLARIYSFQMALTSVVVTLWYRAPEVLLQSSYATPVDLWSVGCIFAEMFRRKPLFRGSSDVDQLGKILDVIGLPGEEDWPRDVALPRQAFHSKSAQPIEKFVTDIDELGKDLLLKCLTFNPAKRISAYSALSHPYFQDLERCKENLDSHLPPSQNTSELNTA
UniProt P41240, sequence (whole entry, looked up): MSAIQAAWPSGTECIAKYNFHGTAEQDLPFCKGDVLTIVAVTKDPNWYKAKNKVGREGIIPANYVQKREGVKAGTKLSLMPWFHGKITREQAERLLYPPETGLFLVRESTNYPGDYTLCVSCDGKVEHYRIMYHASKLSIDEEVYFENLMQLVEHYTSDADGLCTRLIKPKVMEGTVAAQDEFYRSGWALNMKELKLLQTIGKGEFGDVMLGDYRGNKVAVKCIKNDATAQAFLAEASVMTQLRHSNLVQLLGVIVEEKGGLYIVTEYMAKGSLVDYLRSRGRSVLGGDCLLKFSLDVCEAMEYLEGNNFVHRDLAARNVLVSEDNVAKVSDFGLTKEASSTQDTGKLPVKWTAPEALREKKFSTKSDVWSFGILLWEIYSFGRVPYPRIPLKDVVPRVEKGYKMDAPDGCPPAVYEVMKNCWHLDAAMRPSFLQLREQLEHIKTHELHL
UniProt O75582, sequence (whole entry, looked up): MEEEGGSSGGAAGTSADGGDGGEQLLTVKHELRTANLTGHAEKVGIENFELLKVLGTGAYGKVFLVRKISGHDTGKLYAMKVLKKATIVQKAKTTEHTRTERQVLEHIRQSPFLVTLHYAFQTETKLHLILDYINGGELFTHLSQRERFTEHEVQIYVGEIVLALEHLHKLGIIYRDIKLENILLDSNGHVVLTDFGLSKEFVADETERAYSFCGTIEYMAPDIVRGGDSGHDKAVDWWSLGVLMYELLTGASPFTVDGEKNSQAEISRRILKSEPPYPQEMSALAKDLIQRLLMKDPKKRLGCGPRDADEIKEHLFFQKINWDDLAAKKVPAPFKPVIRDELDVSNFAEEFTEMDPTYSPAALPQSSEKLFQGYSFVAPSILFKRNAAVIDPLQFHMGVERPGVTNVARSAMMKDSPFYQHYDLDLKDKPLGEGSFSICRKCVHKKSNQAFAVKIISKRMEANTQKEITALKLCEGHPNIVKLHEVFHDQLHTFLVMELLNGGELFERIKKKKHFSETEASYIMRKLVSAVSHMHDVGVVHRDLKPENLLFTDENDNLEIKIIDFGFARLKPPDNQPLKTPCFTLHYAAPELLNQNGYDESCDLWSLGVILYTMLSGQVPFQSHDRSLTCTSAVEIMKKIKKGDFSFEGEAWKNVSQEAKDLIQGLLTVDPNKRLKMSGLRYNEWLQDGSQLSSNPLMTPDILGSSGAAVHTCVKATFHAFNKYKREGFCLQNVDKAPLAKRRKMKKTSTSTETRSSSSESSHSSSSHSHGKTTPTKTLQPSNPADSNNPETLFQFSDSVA
UniProt P11802, sequence (whole entry, looked up): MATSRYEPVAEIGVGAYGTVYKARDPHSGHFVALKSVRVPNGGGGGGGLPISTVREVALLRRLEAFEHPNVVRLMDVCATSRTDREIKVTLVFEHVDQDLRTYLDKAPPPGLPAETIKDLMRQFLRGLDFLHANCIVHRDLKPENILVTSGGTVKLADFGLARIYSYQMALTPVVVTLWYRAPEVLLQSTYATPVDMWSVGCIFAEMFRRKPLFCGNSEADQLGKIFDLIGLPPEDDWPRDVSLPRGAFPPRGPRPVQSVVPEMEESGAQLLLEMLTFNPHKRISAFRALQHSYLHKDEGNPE
UniProt Q9BVS4, sequence (whole entry, looked up): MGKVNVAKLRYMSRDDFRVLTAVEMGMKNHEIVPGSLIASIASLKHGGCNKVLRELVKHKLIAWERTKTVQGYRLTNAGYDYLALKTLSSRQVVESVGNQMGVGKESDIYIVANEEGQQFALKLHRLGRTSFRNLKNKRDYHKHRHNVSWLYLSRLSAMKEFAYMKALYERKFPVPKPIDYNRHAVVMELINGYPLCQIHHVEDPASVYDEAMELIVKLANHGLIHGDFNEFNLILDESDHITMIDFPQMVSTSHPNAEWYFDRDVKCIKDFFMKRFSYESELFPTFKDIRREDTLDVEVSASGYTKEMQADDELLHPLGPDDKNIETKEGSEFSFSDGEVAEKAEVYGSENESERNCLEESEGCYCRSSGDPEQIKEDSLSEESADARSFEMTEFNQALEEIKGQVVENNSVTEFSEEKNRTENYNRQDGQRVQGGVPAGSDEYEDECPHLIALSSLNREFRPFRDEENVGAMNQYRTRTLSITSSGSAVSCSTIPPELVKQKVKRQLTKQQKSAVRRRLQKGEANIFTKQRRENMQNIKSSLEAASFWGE

Series 1
Structure (SMILES): Cc1noc([C@H]2C[C@@H](c3ccc(C(F)(F)F)cc3)CN(C(=O)N3CCS(=O)(=O)C3)C2)n1
Read-out: cell-free assay
Technique: competition with immobilised ligand
Tested at: 1 µM
It gave 100% for remaining binding (Phosphorylase b kinase gamma catalytic chain, liver/testis isoform (PHKG2, Homo sapiens, UniProt P15735)).
The remaining binding was 100% (Tyrosine-protein kinase ABL1, non-phosphorylated (ABL1, Homo sapiens, UniProt P00519, Q252H)).
The remaining binding was 100% (Mitogen-activated protein kinase kinase kinase 9 (MAP3K9, Homo sapiens, UniProt P80192)).
For Ephrin type-A receptor 6 (EPHA6, Homo sapiens, UniProt Q9UF33): remaining binding read 100%.
Tyrosine-protein kinase receptor UFO (AXL, Homo sapiens, UniProt P30530) — remaining binding: 100%.
For Serine/threonine-protein kinase RIO2 (RIOK2, Homo sapiens, UniProt Q9BVS4): remaining binding read 100%.
For Interleukin-1 receptor-associated kinase 4 (IRAK4, Homo sapiens, UniProt Q9NWZ3): remaining binding read 83%.
For Serine/threonine-protein kinase D1 (PRKD1, Homo sapiens, UniProt Q15139): remaining binding read 100%.
The remaining binding was 90% (High affinity nerve growth factor receptor (NTRK1, Homo sapiens, UniProt P04629)).
It gave 100% for remaining binding (Mitogen-activated protein kinase 12 (MAPK12, Homo sapiens, UniProt P53778)).
The remaining binding was 100% (Serine/threonine-protein kinase WNK2 (WNK2, Homo sapiens, UniProt Q9Y3S1)).
Proto-oncogene tyrosine-protein kinase ROS (ROS1, Homo sapiens, UniProt P08922) — remaining binding: 86%.
For Atypical kinase COQ8B, mitochondrial (COQ8B, Homo sapiens, UniProt Q96D53): remaining binding read 100%.
It gave 93% for remaining binding (Peripheral plasma membrane protein CASK (CASK, Homo sapiens, UniProt O14936)).
For Ribosomal protein S6 kinase alpha-5, N-terminal kinase domain (RPS6KA5, Homo sapiens, UniProt O75582): remaining binding read 85%.
The remaining binding was 100% (Tyrosine-protein kinase CSK (CSK, Homo sapiens, UniProt P41240)).
For Hormonally up-regulated neu tumor-associated kinase (HUNK, Homo sapiens, UniProt P57058): remaining binding read 100%.
The remaining binding was 100% (Mitogen-activated protein kinase kinase kinase kinase 4 (MAP4K4, Homo sapiens, UniProt O95819)).
It gave 100% for remaining binding (Mitogen-activated protein kinase kinase kinase 13 (MAP3K13, Homo sapiens, UniProt O43283)).
For Interleukin-1 receptor-associated kinase 1 (IRAK1, Homo sapiens, UniProt P51617): remaining binding read 100%.
It gave 69% for remaining binding (Tyrosine-protein kinase ABL1, phosphorylated (ABL1, Homo sapiens, UniProt P00519, T315I)).
It gave 75% for remaining binding (Ribosomal protein S6 kinase beta-1 (RPS6KB1, Homo sapiens, UniProt P23443)).
For Testis-specific serine/threonine-protein kinase 3 (TSSK3, Homo sapiens, UniProt Q96PN8): remaining binding read 100%.
The remaining binding was 100% (Tyrosine-protein kinase Lck (LCK, Homo sapiens, UniProt P06239)).
For Serine/threonine-protein kinase pim-2 (PIM2, Homo sapiens, UniProt Q9P1W9): remaining binding read 100%.

Series 2
SMILES: CC(C)S(=O)(=O)c1ccc2nccc(Nc3ccc4sc(C5CCCC5)nc4c3)c2c1
Read-out: enzyme activity
Mode: inhibitor
Tested at: 1 µM
It gave 91.5% for “activity vs control” (Cyclin-dependent kinase 6, with cyclin D3 (CDK6, Homo sapiens, UniProt Q00534)).
For Tyrosine-protein kinase CSK (CSK, Homo sapiens, UniProt P41240): “activity vs control” read 78%.
The “activity vs control” was 100% (Protein kinase C gamma type (PRKCG, Homo sapiens, UniProt P05129)).
It gave 114% for “activity vs control” (Ephrin type-A receptor 4 (EPHA4, Homo sapiens, UniProt P54764)).
It gave 89% for “activity vs control” (RAC-beta serine/threonine-protein kinase (AKT2, Homo sapiens, UniProt P31751)).
For Mitogen-activated protein kinase 12 (MAPK12, Homo sapiens, UniProt P53778): “activity vs control” read 104%.
The “activity vs control” was 85% (Cyclin-dependent kinase-like 4 (CDKL4, Homo sapiens, UniProt Q5MAI5)).

Series 3
Host: human
Sample: microsomes or S9
Tested at: 2 µM
Time: 0.5 h
`COC(=O)c1cc(Cl)ccc1C1CCN(CCN2CCc3ccccc3C2=O)CC1` gave a remaining compound of 0.792%.
With `O=c1c2ccc(F)cc2ncn1C/C=C/c1ccccc1` the remaining compound was 105%.
`COc1ccc(Cl)cc1NC(=O)c1cc(S(=O)(=O)N2CCc3ccccc32)cn1C` gave a remaining compound of 11.6%.
With `C=CCn1c(=O)n(Cc2cccnc2)c2nc(N)nc(Cl)c21` the remaining compound was 82%.
With `COc1cc(C(=O)N2CCN(C)CC2)c(N(C)S(C)(=O)=O)cc1OC` the remaining compound was greater than 100%.
`Cc1cc(C)n(-c2nncn2/N=C/c2cccc3ccccc23)n1` has a remaining compound of 63.5%.
`CN1CCC(=C2c3ccccc3CCc3sccc32)CC1` gave a remaining compound of 73.6%.
For `c1ccc(Cc2nc(Cn3cc(-c4cncnc4)nn3)cs2)cc1`, the remaining compound was greater than 100%.
With `CC(C)Cc1csc2nc(O)n3nc(-c4ccco4)nc3c12` the remaining compound was 65.3%.
With `Cc1ccccc1-c1noc(-c2cc3c(COC(=O)C(C)C)cnc(C)c3oc2=O)n1` the remaining compound was 10.4%.

Series 4
SMILES: O=S(=O)(NCCNC/C=C/c1ccc(Br)cc1)c1cccc2cnccc12
Read-out: enzyme activity
Mode: inhibitor
Tested at: 0.5 µM
Baseline: control
Calcium/calmodulin-dependent protein kinase type II subunit beta (CAMK2B, Homo sapiens, UniProt Q13554) — remaining activity: 93.3%.
Ephrin type-A receptor 4 (EPHA4, Homo sapiens, UniProt P54764) — remaining activity: 86.8%.
3-phosphoinositide-dependent protein kinase 1 (PDPK1, Homo sapiens, UniProt O15530) — remaining activity: 94.1%.
For Cyclin-dependent kinase 1, with cyclin B (CDK1, Homo sapiens, UniProt P06493): remaining activity read 93.3%.
It gave 97.7% for remaining activity (Homeodomain-interacting protein kinase 4 (HIPK4, Homo sapiens, UniProt Q8NE63)).
It gave 43.8% for remaining activity (Mitogen-activated protein kinase kinase kinase kinase 4 (MAP4K4, Homo sapiens, UniProt O95819)).
The remaining activity was 94.4% (Serine/threonine-protein kinase 16 (STK16, Homo sapiens, UniProt O75716)).
The remaining activity was 91.6% (Phosphorylase b kinase gamma catalytic chain, skeletal muscle/heart isoform (PHKG1, Homo sapiens, UniProt Q16816)).
For Serine/threonine-protein kinase 17A (STK17A, Homo sapiens, UniProt Q9UEE5): remaining activity read 100%.
It gave 93.1% for remaining activity (Serine/threonine-protein kinase WNK3 (WNK3, Homo sapiens, UniProt Q9BYP7)).
The remaining activity was 106% (Ephrin type-B receptor 1 (EPHB1, Homo sapiens, UniProt P54762)).
It gave 104% for remaining activity (Testis-specific serine/threonine-protein kinase 2 (TSSK2, Homo sapiens, UniProt Q96PF2)).
For Tyrosine-protein kinase Srms (SRMS, Homo sapiens, UniProt Q9H3Y6): remaining activity read 97.8%.
It gave 99.2% for remaining activity (Homeodomain-interacting protein kinase 2 (HIPK2, Homo sapiens, UniProt Q9H2X6)).
It gave 96.6% for remaining activity (Cyclin-dependent kinase 6, with cyclin D3 (CDK6, Homo sapiens, UniProt Q00534)).
For Dual specificity tyrosine-phosphorylation-regulated kinase 3 (DYRK3, Homo sapiens, UniProt O43781): remaining activity read 83.5%.
For Ribosomal protein S6 kinase alpha-5 (RPS6KA5, Homo sapiens, UniProt O75582): remaining activity read 39.4%.
It gave 106% for remaining activity (Cyclin-dependent kinase 4, with cyclin D3 (CDK4, Homo sapiens, UniProt P11802)).
The remaining activity was 82.4% (Tyrosine-protein kinase Blk (BLK, Homo sapiens, UniProt P51451)).
The remaining activity was 97.8% (MAP kinase-activated protein kinase 3 (MAPKAPK3, Homo sapiens, UniProt Q16644)).
The remaining activity was 108% (Ephrin type-B receptor 4 (EPHB4, Homo sapiens, UniProt P54760)).
Ribosomal protein S6 kinase alpha-6 (RPS6KA6, Homo sapiens, UniProt Q9UK32) — remaining activity: 71.8%.

Some of these lines once more (series 1):
It gave 100% for remaining binding (Phosphorylase b kinase gamma catalytic chain, liver/testis isoform (PHKG2, Homo sapiens, UniProt P15735)).
The remaining binding was 100% (Tyrosine-protein kinase ABL1, non-phosphorylated (ABL1, Homo sapiens, UniProt P00519, Q252H)).
The remaining binding was 100% (Mitogen-activated protein kinase kinase kinase 9 (MAP3K9, Homo sapiens, UniProt P80192)).
For Ephrin type-A receptor 6 (EPHA6, Homo sapiens, UniProt Q9UF33): remaining binding read 100%.
Tyrosine-protein kinase receptor UFO (AXL, Homo sapiens, UniProt P30530) — remaining binding: 100%.
For Serine/threonine-protein kinase RIO2 (RIOK2, Homo sapiens, UniProt Q9BVS4): remaining binding read 100%.
For Interleukin-1 receptor-associated kinase 4 (IRAK4, Homo sapiens, UniProt Q9NWZ3): remaining binding read 83%.
For Serine/threonine-protein kinase D1 (PRKD1, Homo sapiens, UniProt Q15139): remaining binding read 100%.
